Results gathered from unrelated publications.
A part holds a random share of what one study measured. Positions count from the first letter of the parent shown.

Set 1 — target: UBE2S UBC core domain (UniProt Q16763); technique: yeast two-hybrid; medium: yeast; notes: mostly zero background; baseline: not given; reading: higher = stronger interaction; measurement: lacZ reporter activity
B1: MKRN2 RING domain (UniProt Q9H000); chain FAFQASQDKVCSICMEVILEKASASERRFGILSNCNHTYCLSCIRQWRCAKQFENPIIKSCPECRVISEFVIPSV
B2: RNF166 RING domain (UniProt Q96A37); chain GDSGLEAQYTCPICLEVYHRPVAIGSCGHTFCGECLQPCLQVPSPLCPLCRLPFDPKKVDK
B3: RNF152 RING domain (UniProt Q8N8N0); chain ETLSQDSLLECQICFNYYSPRRRPKLLDCKHTCCSVCLQQMRTSQKDVRCPWCRGVTKLPPGFS
B4: TRIM37 RING domain (UniProt O94972); chain SVESIAEVFRCFICMEKLRDARLCPHCSKLCCFSCIRRWLTEQRAQCPHCRAPLQLRELVN
B5: RNF183 RING domain (UniProt Q96D59); chain EQQGRELEAECPVCWNPFNNTFHTPKMLDCCHSFCVECLAHLSLVTPARRRLLCPLCRQPTVLASGQP
B6: MYCBP2 RING domain (UniProt O75592); chain TSLKQDADDMCMICFTEALSAAPAIQLDCSHIFHLQCCRRVLENRWLGPRITFGFISCPICKNKINHIVLKD
B7: RNF2 RING domain (UniProt Q99496); chain SPRSLHSELMCPICLDMLKNTMTTKECLHRFCADCIITALRSGNKECPTCRKKLVSKRSLR
Residues (chain): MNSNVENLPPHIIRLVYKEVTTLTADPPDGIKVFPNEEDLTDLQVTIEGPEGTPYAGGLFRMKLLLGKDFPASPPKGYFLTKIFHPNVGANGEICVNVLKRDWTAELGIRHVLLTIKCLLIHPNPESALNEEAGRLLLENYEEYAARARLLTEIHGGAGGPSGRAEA
RYRQMEERITCPICIDSHIRLVFQCGHGACAPCGSALSACPICRQPIRDRIQIF (MIB2 RING domain (UniProt Q96AX9)): 0
B1 (MKRN2 RING domain): 0
MNDVLENELQCIICSEYFIEAVTLNCAHSFCSYCINEWMKRKIECPICRKDIKSKTYSL (RNF8 RING domain (UniProt O76064)): 0
AEADPLGRFTCPVCLEVYEKPVQVPCGHVFCSACLQECLKPKKPVCGVCRSALAPGVRAV (RNF114 RING domain (UniProt Q9Y508)): 0
B2 (RNF166 RING domain): 0
LDAASGHPLVCPLCHGQYERPCLLDCFHDFCTGCLRGRATDGRLSCPLCQHQTLVKGPSG (Rnf207 RING domain (UniProt Q3V3A7)): 0
KPDKMEETLTCIICQDLLHDCVSLQPCMHTFCAACYSGWMERSSLCPTCRCPVERICKNH (CHFR RING domain (UniProt Q96EP1)): 0
B3 (RNF152 RING domain): 0
FVKTVEDKYKCEKCHLVLCSPKQTECGHRFCESCMAALLSSSSPKCTACQESIVKDKVF (TRAF3 RING domain (UniProt Q13114)): 0
B4 (TRIM37 RING domain): 0
YPEEVDDDLICHICLQALLDPLDTPCGHTYCTLCLTNFLVEKDFCPMDRKPLVLQHCKK (LNX1 RING domain (UniProt Q8TBB1)): 0
B5 (RNF183 RING domain): 0
B6 (MYCBP2 RING domain): 0
B7 (RNF2 RING domain): 0
QVQSRTKIEECVVCSDKKAAVLFQPCGHMCACENCANLMKKCVQCRAVVERRVPFI (MIB1 RING domain (UniProt Q86YT6)): 0

Set 2 — technique: RNA Bind-n-Seq; molecule type: RNA; medium: in vitro; tested at: 90 pmol; notes: 4-mer, random 30-nt RNA, single round; baseline: input library; reading: higher = stronger binding; measurement: 4-mer enrichment
Target: ATP-dependent RNA helicase DDX3X, helicase core (DDX3X, Homo sapiens, UniProt O00571, residues 132-607)
Chain of UniProt O00571 (132-607, looked up): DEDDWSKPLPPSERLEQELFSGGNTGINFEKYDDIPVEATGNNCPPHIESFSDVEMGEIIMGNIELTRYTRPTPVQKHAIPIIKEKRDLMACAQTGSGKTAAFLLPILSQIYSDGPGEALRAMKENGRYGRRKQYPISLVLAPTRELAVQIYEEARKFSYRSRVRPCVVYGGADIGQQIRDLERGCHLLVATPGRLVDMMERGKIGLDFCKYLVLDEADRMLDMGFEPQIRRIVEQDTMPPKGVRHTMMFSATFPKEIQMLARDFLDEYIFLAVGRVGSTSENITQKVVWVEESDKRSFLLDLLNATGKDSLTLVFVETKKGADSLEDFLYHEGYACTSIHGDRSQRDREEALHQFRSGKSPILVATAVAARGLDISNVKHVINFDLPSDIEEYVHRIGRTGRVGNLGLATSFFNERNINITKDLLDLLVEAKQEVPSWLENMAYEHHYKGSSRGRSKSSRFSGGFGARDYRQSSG
Together with: 3 µM iPr-DMDA-PatA, 2 mM ADP, 2 mM phosphate
UCUA: 1 fold
CCUU: 0.854 fold
UUGA: 1.14 fold
CAUA: 1.07 fold
CAGU: 0.891 fold
UGGG: 0.835 fold
CUGU: 0.786 fold
ACUA: 1.14 fold
GACG: 1.07 fold
GCAG: 0.839 fold
UUAG: 1.06 fold
ACGG: 1.18 fold
UGCU: 0.712 fold
UAUG: 0.986 fold
UAGU: 1.06 fold
AGUC: 1.02 fold
UCUU: 0.895 fold
AGAU: 1.3 fold
UGCC: 0.763 fold
GCCC: 0.912 fold

Set 3 — technique: RNA Bind-n-Seq; molecule type: RNA; medium: in vitro; tested at: 1 µM; notes: whole 134-nt RNA, ends assumed; together with: 150 mM KCl; baseline: input library; reading: higher = stronger binding; measurement: log2 enrichment
Target: Ras GTPase-activating protein-binding protein 1, RRM domain (G3BP1, Homo sapiens, UniProt Q13283)
Chain of UniProt Q13283 (whole entry, looked up): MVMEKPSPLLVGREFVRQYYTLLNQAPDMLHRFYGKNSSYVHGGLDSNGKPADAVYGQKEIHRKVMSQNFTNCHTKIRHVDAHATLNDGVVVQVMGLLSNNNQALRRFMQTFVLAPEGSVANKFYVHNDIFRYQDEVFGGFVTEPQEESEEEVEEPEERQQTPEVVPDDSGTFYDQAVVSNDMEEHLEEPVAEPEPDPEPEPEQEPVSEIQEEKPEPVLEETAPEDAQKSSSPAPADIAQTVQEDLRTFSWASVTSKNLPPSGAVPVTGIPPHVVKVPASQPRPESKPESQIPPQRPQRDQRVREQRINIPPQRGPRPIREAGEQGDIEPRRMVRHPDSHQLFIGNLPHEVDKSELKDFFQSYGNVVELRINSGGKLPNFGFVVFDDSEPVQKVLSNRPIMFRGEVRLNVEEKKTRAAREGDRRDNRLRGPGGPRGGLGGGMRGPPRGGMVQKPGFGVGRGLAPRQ
Constant ends, left off below: GGGAGUUCUACAGUCCGACGAUC … UGGAAUUCUCGGGUGUCAAGG
CAAGUCCUGUGCUACACAUCGUAUGUACCGAAUCGGGGUGGGGUUUGGGGUGGGGAAAGUAUUAUGUUACGCCGUUCGGAUCUGCACUUC: 1.18
GGGGUGAGCACAGACAGGAUCGCAGGGAGAGGCCGUAUUAAUUAGCCUGGCUCCCCAGGUUCUGGAACAGCUUUUUGUCCUGUACCCAGU: 0.0459
AAGUCCUGUGCUACACAUCGUAUGUACCGAAUCGGAAAAAAAGGUUUGGUUUUUGGAAAGUAUUAUGUUACGCCGUUCGGAUCUGCACUU: -0.245
CCUGUGCUACACAUCGUAUGUACCGAAUCGGGGAAAAAAAGGGGAAAAAAAGGGGAGGGGAAAGUAUUAUGUUACGCCGUUCGGAUCUGC: 0.363
UCCUGUGCUACACAUCGUAUGUACCGAAUCGGGGAAAGGGGUUUUUGGGGUUUUUGGGGAAAGUAUUAUGUUACGCCGUUCGGAUCUGCA: 1.1
CAAGUCCUGUGCUACACAUCGUAUGUACCGAAUCGGGGAAAGGGAAAGGGAAAGGAAAGUAUUAUGUUACGCCGUUCGGAUCUGCACUUC: -0.149
CCUGUGCUACACAUCGUAUGUACCGAAUCGGGGUUUUUUUGGGGUGGGGAAAAAAAGGGGAAAGUAUUAUGUUACGCCGUUCGGAUCUGC: 0.269
GUCCUGUGCUACACAUCGUAUGUACCGAAUCGGGUUUGGGAAAAAAAGGGAAAAAGGGAAAGUAUUAUGUUACGCCGUUCGGAUCUGCAC: 0.304
CUCAAGUCCUGUGCUACACAUCGUAUGUACCGAAUCGGGGCCGGCCGGCCGGGGAAAGUAUUAUGUUACGCCGUUCGGAUCUGCACUUCC: -0.448
CACAGACAACACGCACCCACACAGACACAGAGGGAAGGGGUUGGGAUGGGGACAGGAAACACAGCAGGGCGGGGUAGGACCCCAGCCCCU: -0.0613
GCAGGAAGUAAAAACAAAUGGAAAUGCUUCGGAUAGUGGCAGGGGUGGGGGUUGCUAAGGAAAGGGUGGGGUGGGAGUGGGUAAAGAGUU: 1.05
UGGCCCUUGUGGCAUGCGGGGAGGAAGAGGUGGCCUCAUGGAUCGUGGUGGUCCCGGUGGAAUGUUCAGAGGUGGCCGUGGUGGAGACAG: 0.383
CAAGUCCUGUGCUACACAUCGUAUGUACCGAAUCAAAUUUAAAUUUAAAUUUAAAAAAGUAUUAUGUUACGCCGUUCGGAUCUGCACUUC: -0.345
GCAGGAUGUAAAAACAAAUGGAAAUGCUUCGGAUAGUGGCAGGGGUGGGGGUUGCUAAGGAAAGGGUGGGAUGGGAGUGGGUAAAGAGUU: 1.13

Set 4 — target: CCNA2, cyclin fold, Cln2 fusion (human); technique: yeast growth competition, sequencing; medium: yeast; notes: strong parent motif; baseline: not given; reading: higher = stronger binding; measurement: normalised enrichment score
Parent: USP37 docking peptide (human); PSAKRSLGFLPQP
K4A: 0.901
Q12A: 2.84
S6A: 1.94
G8A: 3.99
L7A: 0.169
F9A: 0.147

Set 5 — technique: RNA Bind-n-Seq; molecule type: RNA; medium: in vitro; tested at: 365 nM; baseline: no-protein control; reading: higher = stronger binding; measurement: RBNS enrichment (R)
Target: RNA binding protein fox-1 homolog 2, RRM domain, GST-SBP tag (RBFOX2, Homo sapiens, UniProt O43251-10, residues 100-194)
Notes: natural RNA segment, single round, ends assumed
Constant ends, left off below: GGGAGUUCUACAGUCCGACGAUC … UGGAAUUCUCGGGUGCCAA
Residues (chain): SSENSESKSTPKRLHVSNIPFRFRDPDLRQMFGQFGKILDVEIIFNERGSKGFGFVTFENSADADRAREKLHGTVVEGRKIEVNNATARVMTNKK
UGGAGAGGGGACCUGCGAAGGAAAACAGGGAGGAAGUGAGCGGUUUGAUCAGCCUGCUAUCACGGUGUUCUGGCUCUCUUAUUUAGCCAGGCGCUUAAGGGACAGAUACA: 0.694
GUGCUGUUAAGCAUUAGCUGGCUUCCUUGUUCAUUGUUCCAAGAGAUGGGUGUGGAGAGACGGCUUAGUGUAGGAUCCUCUCGAAUGAAGCCUGUGUAAUCCUGUUACAG: 0.75
CCUGCUCAAAGUCAAAUACAAACCCAAGAGAAGAAAUGUCUUCUCAAGACUUUGUGUCUAAUGUUUUUCAAACUUCCCAUUAGAUCACUGCUUCAAUACAAAACCAGCAG: 0.408
AGCUGUGGUCUUAAAUACUAGACCAGGUUUAGUAGCUCUGUUUUGUCAGUUUUCUAUUUGCCCUCUUGAGUACAGGGAUGGAUGGAUGGCUGCUCAACACACUCCUCCCC: 0.349
UUUCUCCCUCACAUCAGGAGGUAGAUAGCUCUGAAAUGACAGCGCCACAGCCAUAGUGACUGCAUGAGCCAUCUGAACCUGCAGUCCACCCUCCCUGGAACCACACCAGA: 0.262
AUAUAAUUUGAAUGACUGUGAAAACAUAUGACCUUUGAUAACGAACUCAUUUGCUCACUCCUUGACAGCAAAGCCCAGUACGUACAAUUGUGUUGGGUGUGGGUGGUCUC: 0.766
UAAUAGAUUUGUUCUGUGUUUGAUUGCCAGCAUCCUCCAGACCCCUGAAUCAUCUAAAGCUAGGUCACUGUGUUGUGUAAAGGGGAGACAGGACUGACAGCAUCCCUUAA: 1.86
GUUAGCCUUAGUGAUUGCAGUGAACACUGUUUACACACCGUGAAUCCAUUCCCACCAGUCCAUUUCAGUUGCCACCAGCCUGAACCACUCGGUACCUGGUGUUAACUGGA: 0.275
UUGUGACCGUUAGUCUCUAAGCUUUACCAGGAGCAGCCUGGGUUCAGCCAGUCAGUGACUGGUGGGUUUGAAUCUGCACUUAUCCCCACCACCUGGGGACCCCCUUGUUG: 0.256
CAUUUGGUUUAAGCAGGAAUCCUAGAAGCAAAUGGAUGGGGAUAAGAAUAGGUCAUUUUCUAUUCACCAUCCUUUACUAUUAAGGGAAAGGAAAAGAACACUAGCUAAGG: 0.392
CUGUAGCCACUGCCCAGCACCUCCUCAGGCCAGCCUGGUGCCACAGUCACGUGGGGGAAGACCUCAGCCACAGCUGUAAGCAGCUCUCUGCCAGCCACAUGGCCGGGGAC: 0.367
UCAGAGACUUUGGGAAGAGAAAUUAAAACUGAAAACAAAGGAGAUAACACCCAUACUUAAGCCUGCACUUGUUUGUAGUUCAUCGCCCUUGGCCUGAGAGGCAGCCAAGG: 0.96
